Measured values of several laboratories.
Each numbered part is a random draw from the data of one study; scales do not carry over between parts. Changes are numbered by the printed parent chain.

Block 1
Target: Sal-like protein 4, full length isoform A (SALL4, Homo sapiens, UniProt Q9UJQ4, residues 1-1053)
Chain of UniProt Q9UJQ4 (whole entry, looked up): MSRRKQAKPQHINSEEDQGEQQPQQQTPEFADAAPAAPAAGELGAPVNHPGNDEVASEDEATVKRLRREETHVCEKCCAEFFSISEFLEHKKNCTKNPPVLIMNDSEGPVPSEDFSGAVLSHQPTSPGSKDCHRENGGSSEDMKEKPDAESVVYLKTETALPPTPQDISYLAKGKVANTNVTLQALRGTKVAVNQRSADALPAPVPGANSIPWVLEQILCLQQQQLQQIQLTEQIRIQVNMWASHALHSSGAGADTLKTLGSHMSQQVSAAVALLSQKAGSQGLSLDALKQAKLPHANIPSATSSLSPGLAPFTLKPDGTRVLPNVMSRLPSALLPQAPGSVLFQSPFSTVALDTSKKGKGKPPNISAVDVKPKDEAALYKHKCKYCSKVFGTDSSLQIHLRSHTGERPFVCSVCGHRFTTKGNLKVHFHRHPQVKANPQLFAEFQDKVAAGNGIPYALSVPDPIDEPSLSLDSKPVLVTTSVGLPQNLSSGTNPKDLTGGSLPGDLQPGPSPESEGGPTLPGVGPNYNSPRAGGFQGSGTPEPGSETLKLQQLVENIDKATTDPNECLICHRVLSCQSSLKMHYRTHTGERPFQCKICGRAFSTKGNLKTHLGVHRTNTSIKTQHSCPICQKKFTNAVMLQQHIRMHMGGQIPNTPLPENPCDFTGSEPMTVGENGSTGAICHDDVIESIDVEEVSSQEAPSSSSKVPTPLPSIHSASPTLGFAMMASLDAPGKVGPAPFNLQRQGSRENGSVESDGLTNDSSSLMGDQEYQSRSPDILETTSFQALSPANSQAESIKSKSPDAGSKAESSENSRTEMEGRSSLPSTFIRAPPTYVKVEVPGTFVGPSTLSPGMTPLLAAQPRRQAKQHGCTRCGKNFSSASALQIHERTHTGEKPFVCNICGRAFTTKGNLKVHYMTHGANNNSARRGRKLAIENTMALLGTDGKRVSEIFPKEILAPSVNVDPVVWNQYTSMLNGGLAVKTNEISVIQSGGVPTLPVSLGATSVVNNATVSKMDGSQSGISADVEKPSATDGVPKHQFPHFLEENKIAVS
Method: universal PBM
Molecule type: double-stranded DNA, one strand shown
Matrix: in vitro
Concentration: 600 nM
Notes: 8-mer, flanks averaged, mean of replicates
Direction: higher = stronger binding
| Sequence | E-score |
| --- | --- |
| CATACAGC | 0.0235 |
| TACATCCA | 0.247 |
| GAGGAGCA | -0.18 |
| TCACATAA | 0.287 |
| ATCAAACC | 0.0354 |
| ATCAGAGG | 0.0672 |
| ACGAAAAG | 0.118 |

Block 2
Target: CCND3, cyclin fold, Cln2 fusion (human)
Method: yeast growth competition, sequencing
Matrix: yeast
Notes: weak parent motif
Reference: not given
Direction: higher = stronger binding
Parent: MASTL docking peptide (human); PMIAKNLMCELDE
| Variant | normalised enrichment score |
| --- | --- |
| M2N | 0.108 |
| L11S | -0.00898 |
| D12R | -0.0589 |
| A4S | -0.222 |
| N6G | -0.0309 |
| D12N | -0.143 |
| M8V | 0.192 |

Block 3
Target: CREBRF, bZIP domain (human)
Method: DHFR protein complementation
Matrix: yeast
Notes: single substitutions, most at no-binding floor
Reference: wild-type JUN-FOS pair
Direction: higher = stronger binding
Parent: JUN, bZIP domain (human); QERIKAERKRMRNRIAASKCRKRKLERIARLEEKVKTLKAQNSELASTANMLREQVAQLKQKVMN; partner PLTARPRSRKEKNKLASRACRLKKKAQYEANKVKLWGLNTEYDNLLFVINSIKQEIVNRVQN
| Variant | binding fitness |
| --- | --- |
| K39I | -1.54 natural log |
| Q55A | -1.5 natural log |
| L31G | -1.48 natural log |
| E44Y | -1.55 natural log |
| K39F | -1.44 natural log |

Further values, each from its own experiment
| Substance | target | assay | test system | setting | scale | measurement | value |
| --- | --- | --- | --- | --- | --- | --- | --- |
| PhoQ, residues 284 288 289 292 302 303 ASSHFY | PhoP, residues 12 14 15 18 19 LHSVW (Escherichia coli, UniProt P23836) | Sort-seq, refers to: YFP reporter | E. coli | PhoQ-PhoP variant library, added: 10 µM Mg2+ | reference: high Mg2+ state, higher = stronger signaling | fold induction | 11.2 |
